Measurements collected from several papers.
Lines come from different studies, so protocols differ. ± marks the error that the study gave.
LYN: Tyrosine-protein kinase Lyn (LYN, Homo sapiens, UniProt P07948)
UniProt P07948, sequence (whole entry, looked up): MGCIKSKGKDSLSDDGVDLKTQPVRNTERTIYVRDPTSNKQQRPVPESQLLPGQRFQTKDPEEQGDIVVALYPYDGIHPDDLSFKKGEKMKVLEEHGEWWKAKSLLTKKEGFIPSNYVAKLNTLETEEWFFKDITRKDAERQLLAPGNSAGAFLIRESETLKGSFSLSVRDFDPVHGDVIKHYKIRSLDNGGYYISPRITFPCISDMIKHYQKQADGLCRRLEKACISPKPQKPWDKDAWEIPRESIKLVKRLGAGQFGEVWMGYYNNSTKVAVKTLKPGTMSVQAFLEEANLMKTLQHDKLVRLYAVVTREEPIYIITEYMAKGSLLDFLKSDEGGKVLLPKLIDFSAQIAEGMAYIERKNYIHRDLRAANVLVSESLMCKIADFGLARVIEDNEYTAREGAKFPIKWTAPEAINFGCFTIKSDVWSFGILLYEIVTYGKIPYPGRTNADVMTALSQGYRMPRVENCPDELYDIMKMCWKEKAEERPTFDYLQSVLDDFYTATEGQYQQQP
DRD3: D(3) dopamine receptor (DRD3, Homo sapiens, UniProt P35462)
UniProt P35462, sequence (whole entry, looked up): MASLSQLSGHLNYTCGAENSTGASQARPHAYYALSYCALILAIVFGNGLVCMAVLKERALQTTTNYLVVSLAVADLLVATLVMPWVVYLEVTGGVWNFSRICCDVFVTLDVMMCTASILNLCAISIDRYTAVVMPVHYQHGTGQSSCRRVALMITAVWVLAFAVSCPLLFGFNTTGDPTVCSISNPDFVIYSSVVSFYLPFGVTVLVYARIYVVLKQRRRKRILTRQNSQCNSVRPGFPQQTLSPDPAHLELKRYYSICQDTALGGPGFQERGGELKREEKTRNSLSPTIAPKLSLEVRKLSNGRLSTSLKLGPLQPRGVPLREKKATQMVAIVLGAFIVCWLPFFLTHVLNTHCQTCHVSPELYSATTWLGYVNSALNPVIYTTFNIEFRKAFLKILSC
UniProt P35348, sequence (whole entry, looked up): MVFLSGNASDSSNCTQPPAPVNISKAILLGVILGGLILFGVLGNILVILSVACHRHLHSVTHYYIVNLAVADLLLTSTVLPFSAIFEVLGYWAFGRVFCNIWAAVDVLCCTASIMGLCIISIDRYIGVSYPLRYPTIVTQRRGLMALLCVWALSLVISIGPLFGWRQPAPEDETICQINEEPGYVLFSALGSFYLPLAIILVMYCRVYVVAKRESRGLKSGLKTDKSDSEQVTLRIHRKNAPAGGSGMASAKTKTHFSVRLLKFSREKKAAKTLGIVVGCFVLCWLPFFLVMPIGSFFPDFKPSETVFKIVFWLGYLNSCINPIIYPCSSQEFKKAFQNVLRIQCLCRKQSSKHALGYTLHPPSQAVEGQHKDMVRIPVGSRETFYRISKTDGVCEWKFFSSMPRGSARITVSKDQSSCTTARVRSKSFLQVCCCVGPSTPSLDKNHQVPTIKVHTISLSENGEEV
UniProt P31645, sequence (whole entry, looked up): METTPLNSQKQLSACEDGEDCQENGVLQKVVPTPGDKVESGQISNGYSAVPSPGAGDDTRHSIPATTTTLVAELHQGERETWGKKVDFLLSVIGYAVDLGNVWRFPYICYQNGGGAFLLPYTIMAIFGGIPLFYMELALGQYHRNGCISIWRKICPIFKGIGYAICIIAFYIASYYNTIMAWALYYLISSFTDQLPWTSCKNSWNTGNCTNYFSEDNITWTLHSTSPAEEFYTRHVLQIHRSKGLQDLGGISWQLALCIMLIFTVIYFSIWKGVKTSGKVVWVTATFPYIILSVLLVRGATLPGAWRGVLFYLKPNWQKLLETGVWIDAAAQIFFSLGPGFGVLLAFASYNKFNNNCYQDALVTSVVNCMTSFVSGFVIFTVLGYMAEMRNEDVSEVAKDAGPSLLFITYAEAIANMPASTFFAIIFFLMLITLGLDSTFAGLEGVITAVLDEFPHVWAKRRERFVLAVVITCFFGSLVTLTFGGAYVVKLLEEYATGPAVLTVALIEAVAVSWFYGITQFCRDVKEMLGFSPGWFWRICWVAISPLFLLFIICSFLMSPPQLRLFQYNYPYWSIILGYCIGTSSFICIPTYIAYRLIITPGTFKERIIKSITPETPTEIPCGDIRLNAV
UniProt P41143, sequence (whole entry, unmodified, looked up): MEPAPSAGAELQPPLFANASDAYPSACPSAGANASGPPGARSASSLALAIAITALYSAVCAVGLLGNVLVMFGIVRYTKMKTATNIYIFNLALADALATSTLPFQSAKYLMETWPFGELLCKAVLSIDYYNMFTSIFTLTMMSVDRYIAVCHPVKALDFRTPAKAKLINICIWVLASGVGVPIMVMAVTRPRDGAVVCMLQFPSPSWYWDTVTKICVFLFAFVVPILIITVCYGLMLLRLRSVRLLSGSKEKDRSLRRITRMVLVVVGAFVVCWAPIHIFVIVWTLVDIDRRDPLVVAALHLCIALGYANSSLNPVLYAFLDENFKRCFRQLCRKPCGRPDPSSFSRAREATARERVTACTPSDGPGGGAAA

SMILES	target or system	test	test system	setting	quantity	result
CC(C)n1nc(-c2ccc3cc(OCc4ccccc4)ccc3c2)c2c(N)ncnc21	LYN	enzyme activity, inhibitor	–	–	Ki	790 nM
CNCc1ccc(-c2cc(Cl)ccc2Cl)o1	DRD3	binding	–	–	Ki	700 nM
CC(C)n1nc(-c2ccc3c(c2)OCO3)c2c(N)ncnc21	LYN	enzyme activity, inhibitor	–	–	Ki	160 nM
CCN(CC)C(=O)[C@@H]1C=C2c3cccc4c3c(cn4C(=O)c3ccco3)C[C@H]2N(C)C1	ADRA1A (Homo sapiens, UniProt P35348)	ligand displacement, radioligand	–	–	Ki	> 10000 nM
CC(C)n1nc(-c2cccc(O)c2)c2c(N)ncnc21	LYN	enzyme activity, inhibitor	–	–	Ki	210 nM
O=C1NC2(CC2)COc2ncc(F)cc2[C@H]2COCCN2c2ccn3ncc1c3n2	–	–	Sprague-Dawley rat, male, serum	oral, 5 mg/kg/day, 4 weeks daily, end of treatment	glucose	8.6 ± 1.5 mmol/L
OC(CN1CCN(c2nsc3ccccc23)CC1)c1cccs1 (stereo not shown)	DRD3	β-arrestin recruitment, antagonist	–	–	Ki	300 nM
CCC[C@@H](C(=O)c1ccccc1)N1CCCC1	SLC6A4 (Homo sapiens, UniProt P31645)	transporter uptake, inhibitor, radiometric	–	–	Ki	386000 nM
CC(C)(CO)NCc1ccc(-c2cccc(C(F)(F)F)c2)o1	DRD3	binding	–	–	Ki	400 nM
CCN(CC)C(=O)c1ccc(C(c2cccc(O)c2)N2CC(C)N(Cc3ccccc3)CC2C)cc1 (stereo not shown)	OPRD1 (Homo sapiens, UniProt P41143, W274A)	–	–	–	Ki	0.71 ± 0.15 nM

Some of these lines once more:
SMILES	target or system	test	test system	setting	quantity	result
CCN(CC)C(=O)[C@@H]1C=C2c3cccc4c3c(cn4C(=O)c3ccco3)C[C@H]2N(C)C1	ADRA1A (Homo sapiens, UniProt P35348)	ligand displacement, radioligand	–	–	Ki	> 10000 nM
